Measured values collected from several papers.
Each line is one published result; not all experiments were run side by side. Numbers after ± are the reported error.

CCCn1c(=O)c2[nH]c(-c3ccc(N(C)C(=O)c4ccc(C(F)(F)F)nc4)nc3)nc2n(CCC)c1=O
cAMP level (adenosine receptor, mouse; antagonist; mouse aortic endothelial cells; 1 µM, added: NECA): inhibited

COc1ccc(NC(=O)[C@H](CCCCN)NC(=O)c2cc(NC(=O)[C@H](CCCCN)NC(=O)c3cc(NC(=O)[C@H](CCCCN)NC(=O)c4cc(NC(=O)[C@@H](N)CCCCN)ccc4OC)ccc3OC)ccc2OC)cc1C(=O)NCCC(=O)O
EC50 (antithrombin III-factor Xa; fondaparinux reversal, amidolytic; pH 8.4, added: fondaparinux 0.02 µg/mL): 6 µM

COc1ccc(/C=C/C(=O)c2ccc(OC)cc2)cc1
IC50 (HDAC class I, II and IV (human); enzyme activity, inhibitor, fluorometric; K562 cell extract; 1 h, 37 °C): > 1000 µM

CC(C)C[C@H](NC(=O)[C@H](CCC(N)=O)NC(=O)[C@H](CCCNC(=N)N)NC(=O)[C@H](CCCNC(=N)N)NC(=O)[C@@H](NC(=O)[C@H](CCCNC(=N)N)NC(=O)[C@@H](NC(=O)[C@H](CO)NC(=O)[C@@H](N)CS)[C@@H](C)O)C(C)C)C(N)=O
superoxide production (human Nox1/p47phox/p67phox; cytochrome c reduction; 1 µM, added: LiDS): no effect

O=C(/C=C/c1ccc(O)c(O)c1)c1ccc(O)cc1O
IC50 (HDAC class I, II and IV (human); enzyme activity, inhibitor, fluorometric; K562 cell extract; 1 h, 37 °C): 60 µM

COc1ccc(NC(=O)[C@H](CCCCN)NC(=O)c2cc(NC(=O)[C@H](CCCCN)NC(=O)c3cc(NC(=O)[C@H](CCCCN)NC(=O)c4cc(N)ccc4OC)ccc3OC)ccc2OC)cc1C(N)=O
EC50 (antithrombin III-factor Xa; fondaparinux reversal, amidolytic; pH 8.4, added: fondaparinux 0.02 µg/mL): 6.8 µM

CC(C)(C)C(=O)Nc1ccc2[nH]c(CN3CCC(N(CCCN4CCOCC4)CC4OC(n5cnc6c(N)ncnc65)C(O)C4O)CC3)nc2c1 (stereo not drawn)
H3K79me2 level ratio (human DOT1L R231Q; inhibitor, western blot, measured: H3K79me2 over histone H3; H460 DOT1L R231Q; concentration not given; baseline: cpd over SGC0946): 0.536

CC1=C(/C=C/C(C)=C/C=C/C(C)=C/C=O)C(C)(C)CCC1
EC50 (thyroid hormone receptor, rat; reporter gene, agonist, luciferase reporter, qHTS; GH3.TRE-Luc): < 10 µM

Cc1sc2ncn(CC(=O)N3CCCC3)c(=O)c2c1-c1cccc(Br)c1
unitary current amplitude 1 (NMDA receptor, mouse; single-channel current, outside-out patch; cortical neurons; concentration not given, holding -80 mV, added: Ca2+ 0.5 mM): -4.23 ± 0.55 pA

COc1cc2c(NC3CCN(C(C)C)CC3)cc(N3CCOCC3)nc2cc1OCCCN1CCCC1
inhibition (panel of methyltransferases; enzyme activity; 1 µM): < 20%

Cc1ccc(NS(=O)(=O)c2cccc(C#N)c2)c2[nH]cc(C#N)c12
effect of DDA1 on binding (human DCAF15-DDB1; TR-FRET; concentration not given, outcome no effect): no effect

CCCCCCCCCCCCCCCC(=O)N[C@@H](CCCCN)C(=O)N[C@@H](CCCCN)C(=O)N[C@@H](CO)C(=O)N[C@@H](CCCNC(=N)N)C(=O)N[C@@H](C)C(=O)N[C@@H](CC(C)C)C(=O)N[C@@H](Cc1ccccc1)C(N)=O
inhibition (baboon PAR1; ex vivo platelet aggregation; baboon; intravenous infusion, 6 mg/kg, 1 to 2 h, infusion 45 min, added: SFLLRN): 100%

COc1ccc(CCC(=O)c2c(O)cc(OC)cc2O)cc1
IC50 (HDAC class I, II and IV (human); enzyme activity, inhibitor, fluorometric; K562 cell extract; 1 h, 37 °C): > 1000 µM

Clc1ccc(NN=C(c2ccccc2)c2ccccn2)nc1
HDAC activity (histone deacetylase; mouse, tumour-bearing, tumour lysate; dose not given; baseline: vehicle): no effect

COc1ccc(NC(=O)[C@H](CCCCN)NC(=O)c2cc(NC(=O)[C@H](CCCCN)NC(=O)c3cc(NC(=O)[C@H](CCCCN)NC(=O)c4cc(NC(=O)[C@@H](N)CCCCN)ccc4OC)ccc3OC)ccc2OC)cc1C(N)=O
EC50 (antithrombin III-factor Xa; fondaparinux reversal, amidolytic; pH 8.4, added: fondaparinux 0.02 µg/mL): 3.6 µM

O=C([O-])CN(CCN(CC(=O)[O-])CC(=O)NCCc1c[nH]c2ccc(O)cc12)CCN(CC(=O)[O-])CC(=O)NCCc1c[nH]c2ccc(O)cc12.[Gd+3]
activation ratio increase (myeloperoxidase mouse; MR contrast, MR imaging; wild-type mouse, CFA inflammation; 0.3 mmol/kg, 60 min; baseline: first post-contrast scan): ~2 fold

COc1ccc(/C=C/C(=O)c2ccccc2)cc1OC
IC50 (HDAC class I, II and IV (human); enzyme activity, inhibitor, fluorometric; K562 cell extract; 1 h, 37 °C): > 1000 µM

COc1cc(C(=O)c2[nH]c(N)nc2-c2cccs2)cc(OC)c1OC
inhibition (tubulin goat; taxol-induced tubulin polymerization; 150 µM, added: taxol 10 µM): 65 ± 18%

CCCCC/C=C/C(=O)CCc1ccc(O)c(OC)c1
IC50 (mAb 5-3H1; antibody binding, indirect competitive ELISA; added: coating antigen 2-OVA): > 4 µg/mL

COc1cc(O)c(C(=O)/C=C/c2ccc(O)cc2)c(OC)c1
IC50 (HDAC class I, II and IV (human); enzyme activity, inhibitor, fluorometric; K562 cell extract; 1 h, 37 °C): > 1000 µM

C#CCCNC(=O)[C@@H](NC(=O)N[C@H](C(=O)N[C@H]1/C=C/CCNC(=O)/C=C/[C@H](C(C)C)NC1=O)C(C)C)C(C)C
minimum labelling concentration (proteasome β1 subunit, human and mouse; probe labelling, fluorescent gel; purified constitutive and immunoproteasome; 1 h): 0.5 µM

COc1cc(CCC(C)=O)ccc1O
IC50 (mouse mAb 1-F12; antibody binding, indirect competitive ELISA; added: coating antigen hapten 5-OVA): 0.283 µg/mL

CN(C)C1CCN(c2nc3oc4ccccc4c(=O)c3s2)CC1
inhibition (IκBα (mouse); IκBα phosphorylation, immunoblot; RAW264.7; 50, 10, 2 µM, 12 h, added: LPS 1 µg/mL): inhibited

Cn1cncn1.[Ru+2].c1cc(-c2ccc3ccccc3n2)nc(-c2ccc3ccccc3n2)c1.c1ccc2cc3nc4c5cccnc5c5ncccc5c4nc3cc2c1
remaining activity (cysteine cathepsins (mouse); enzyme activity; 4T1, cell lysate; 1 µM, 4 h, dark, then 1 h, added: Z-Phe-Arg-AMC; baseline: vehicle): 94 ± 8%

For quick reference, copied from above:
Clc1ccc(NN=C(c2ccccc2)c2ccccn2)nc1
HDAC activity (histone deacetylase; mouse, tumour-bearing, tumour lysate; dose not given; baseline: vehicle): no effect
